Results from different studies.
Numbered parts are unrelated; each lists some results of a single study.

Series 1
Target: Prothrombin, mature alpha-thrombin (F2, Homo sapiens, UniProt P00734)
Technique: aptamer microarray, sandwich
Form: DNA with 2'F-ANA
Matrix: in vitro
Concentration: 200 nM
Setting: whole 15-mer aptamer, many near background
Added: Cy3 exosite-II aptamer, 400 nM
Direction: higher = stronger binding
Endpoint: mean fluorescence intensity
Oligonucleotide: GGTTGGTGTGGTTGG
2'F-ANA at 2 4 7 10 14 15: 63.4 a.u.
2'F-ANA at 1 8 9 12 14: 68.5 a.u.
2'F-ANA at 4 9 10 13 14 15: 74 a.u.
2'F-ANA at 1 3 5 8 11 12 14 15: 46.8 a.u.
2'F-ANA at 2 6 8 10 11 12: 142 a.u.
2'F-ANA at 3 6 9 10 11 12 14: 381 a.u.
2'F-ANA at 1 2 5 7 8 9 10 11 14: 56.2 a.u.
2'F-ANA at 2 5 13 14: 45.9 a.u.
2'F-ANA at 4 5 6 9 10 11 13: 49.1 a.u.

Series 2
Target: Ras GTPase-activating protein-binding protein 1, RRM domain (G3BP1, Homo sapiens, UniProt Q13283)
Sequence of UniProt Q13283 (whole entry, looked up): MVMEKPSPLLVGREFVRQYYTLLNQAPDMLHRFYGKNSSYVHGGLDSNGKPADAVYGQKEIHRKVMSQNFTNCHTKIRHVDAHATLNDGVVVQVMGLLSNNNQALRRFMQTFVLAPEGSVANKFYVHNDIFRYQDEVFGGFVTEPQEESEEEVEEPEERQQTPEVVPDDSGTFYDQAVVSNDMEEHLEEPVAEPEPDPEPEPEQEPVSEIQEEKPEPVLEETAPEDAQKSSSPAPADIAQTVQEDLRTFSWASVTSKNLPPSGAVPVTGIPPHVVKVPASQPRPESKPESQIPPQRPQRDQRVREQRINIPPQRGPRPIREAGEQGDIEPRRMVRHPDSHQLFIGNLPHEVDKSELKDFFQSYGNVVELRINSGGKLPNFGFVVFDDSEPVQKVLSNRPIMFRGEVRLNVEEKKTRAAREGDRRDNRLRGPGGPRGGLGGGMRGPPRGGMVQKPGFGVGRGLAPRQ
Technique: RNA Bind-n-Seq
Form: RNA
Matrix: in vitro
Concentration: 1 µM
Setting: whole 134-nt RNA, ends assumed
Added: 150 mM KCl
Baseline: input library
Direction: higher = stronger binding
Endpoint: log2 enrichment
Shared flanks, not repeated: GGGAGUUCUACAGUCCGACGAUC … UGGAAUUCUCGGGUGUCAAGG
UGGCCCUGGUGGCAUGCGGGGAGGAAGAGGUGGCCUCAUGGAUCGUGGUGGUCCCGGUGGAAUGUCCAGAGGUGGCCGUGGUGGAGACAG: 0.823
UGGCCCUGGUGGCAUGCGGGGAGGAAGAGGUGGCCUCAUGGAUCGUGGUGGUCCCGGUGGAAUGUUCAGAGGGGGCCGUGGUGGAGACAG: 2.47
AAGUCCUGUGCUACACAUCGUAUGUACCGAAUCGGCCCCGGGGCCCCGGGGCCCCGGAAAGUAUUAUGUUACGCCGUUCGGAUCUGCACU: -0.172
UGCUGGAGGCAAAAAAUGCCAGCCUGGCGUCGUCCAACAACGACUUGCAGGUGGCCGAGGAGCAGUACCAGAGGCUUAUGGCCAAGGUAG: -0.548
CAAGUCCUGUGCUACACAUCGUAUGUACCGAAUCGGGGCCCGGCCCGGGCCCGGGGAAAGUAUUAUGUUACGCCGUUCGGAUCUGCACUU: -0.582
AAGUCCUGUGCUACACAUCGUAUGUACCGAAUCGGGCCCCGGGGCCCCGGCCCCGGAAAGUAUUAUGUUACGCCGUUCGGAUCUGCACUU: -0.702
AAGUCCUGUGCUACACAUCGUAUGUACCGAAUCGGGAAAAAGGGUUUUUGGGUGGGAAAGUAUUAUGUUACGCCGUUCGGAUCUGCACUU: 0.773
GCAGGAAGUAAAAACAAAUGGAAAUAAAUCGGAUAGUGGCAGGGGUGGGGGUUGCUAAGGAAAGGGUGGGAUGGGAGUGGGUAAAGAGUU: 1.11

Series 3
Target: Histone acetyltransferase KAT6A, winged helix 1, GST fusion (KAT6A, Homo sapiens, UniProt Q92794, residues 1-85)
Technique: protein binding microarray
Form: double-stranded DNA, one strand shown
Matrix: in vitro
Concentration: not given
Setting: 8-mer, flanks averaged, mean of 2 arrays, mostly near background
Baseline: not given
Direction: higher = stronger binding
Endpoint: E-score
Construct (chain): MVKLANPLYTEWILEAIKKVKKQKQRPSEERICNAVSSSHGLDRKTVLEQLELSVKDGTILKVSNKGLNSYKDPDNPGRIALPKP
AGAGGTTC: 0.0732
AGGATCCT: -0.228
CATCAAGC: -0.102
CCCAGACC: -0.0366
CCTGTCGA: -0.164
GGGCTGGA: -0.127
GGCCTCAA: -0.107

Further values, each from its own experiment
PhoQ, residues 284 288 289 292 302 303 NLGVHL — fold induction (PhoP, residues 12 14 15 18 19 SYFRT (Escherichia coli, UniProt P23836); Sort-seq, item: YFP reporter; E. coli; PhoQ-PhoP variant library, added: 10 µM Mg2+; baseline: high Mg2+ state, higher = stronger signaling): 8.04
